Assay results pooled from the literature.

test system | setting | quantity | value | SMILES
male C57BL/6 mouse, kidney | intravenous, 10 mg/kg | AUC(0-inf) | 64900 ng·h/mL | C/C(N)=N/C(=N\S(=O)(=O)c1ccc(C(F)(F)F)cc1)N1C[C@H](c2ccccc2)C(c2ccc(Cl)cc2)=N1
male SCID mouse, plasma | oral, 10 mg/kg | AUC(0-t) | 1110 ng·h/mL | O=C(OC(C(F)(F)F)C(F)(F)F)N1CCC(CNS(=O)(=O)c2ccc(Cl)cc2)CC1
C57BL/6 mouse, blood | oral, 20 mg/kg | AUC(0-inf) | 110 µM·h | Cn1ccc(-c2cc(Cl)c(Cl)c3[nH]c4c(c23)CN(C(=O)CO)CC4)n1
male BALB/c mouse, plasma | intravenous, 1 mg/kg, single dose | AUC(0-inf) | 976 ng·h/mL | Cn1c2cc([S+](C)[O-])sc2c2cnn(Cc3cccc(N)c3)c(=O)c21 (centres unmarked)
female nude mouse, plasma | oral, 10 mg/kg, single dose | AUC(0-t) | 5260 ng·h/mL | Cc1cc(NC(=O)[C@H](O)c2cc(F)cc(F)c2)ccc1-c1cnc(N)c(C(=O)NC(C)C)c1
female CD-1 mouse, plasma | intravenous, 15 mg/kg, single dose | AUC | 24200 ng·h/mL | CN[C@H](CC(C)C)C(=O)N[C@H]1C(=O)N[C@@H](CC(N)=O)C(=O)N[C@H]2C(=O)N[C@H]3C(=O)N[C@H](C(=O)N[C@H](C(=O)N[C@H](CCCNC(=N)N)C(N)=O)c4cc(O)cc(O)c4-c4cc3ccc4O)[C@H](O)c3ccc(c(Cl)c3)Oc3cc2cc(c3O[C@@H]2O[C@H](CO)[C@@H](O)[C@H](O)[C@H]2O[C@H]2C[C@](C)(N)[C@H](O)[C@H](C)O2)Oc2ccc(cc2Cl)[C@H]1O
female CD-1 mouse, plasma | intravenous, 5 mg/kg | AUC | 36800 ng·h/mL | COC1C=COC2(C)Oc3c(C)c(O)c4c(c3C2=O)C2=NC3(CCN(CC(C)C)CC3)NC2=C(NC(=O)C(C)=CC=CC(C)C(O)C(C)C(O)C(C)C(OC(=O)Nc2cccnn2)C1C)C4=O (centres unmarked)
male CD-1 mouse, plasma | oral, 50 mg/kg | AUC(0-t) | 50500 ng·h/mL | COc1cnc2cccc(N3CCc4c(cc(Cn5ccnc5)cc4-c4cn(C)nc4C(F)(F)F)C3=O)c2c1

Some of these lines once more:
test system | setting | quantity | value | SMILES
male SCID mouse, plasma | oral, 10 mg/kg | AUC(0-t) | 1110 ng·h/mL | O=C(OC(C(F)(F)F)C(F)(F)F)N1CCC(CNS(=O)(=O)c2ccc(Cl)cc2)CC1
